Published values pooled from the literature.
Numbers after ± are the reported error.
Cell line: MDA-MB-468

Nc1ccccc1NC(=O)c1ccc(Nc2nccc(-c3cn(C4CCCC4)nn3)n2)cc1
IC50 (cell growth or viability, SRB; 72 h): 2.09 µM

Cc1cc(C)nc(NC(=S)N2CCN(Cc3ccc(C(F)(F)F)cc3)CC2)c1
M+1 serine fraction (10 µM, together with: U-13C-serine): increased

CCCCCCCCn1c(-c2cccnc2)nc(-c2ccc(C)cc2)c1-c1ccc(C)cc1
IC50 (cell growth or viability, SRB; 48 h): 82.4 µM

C[C@H](N)C(=O)N[C@@H](Cc1c[nH]c2ccccc12)C(=O)N[C@@H](CCC(N)=O)C(=O)N[C@@H](Cc1c[nH]c2ccccc12)C(=O)N[C@@H](CCCNC(=N)N)C(=O)N[C@@H](Cc1c[nH]c2ccccc12)C(=O)N[C@@H](CCC(N)=O)C(=O)N[C@@H](Cc1c[nH]c2ccccc12)C(=O)N[C@@H](CCCNC(=N)N)C(N)=O
viability (MTT; concentration not given, 24 h, 37 °C, 5% FBS; reference: untreated cells): 48 ± 5%

CC(=O)N[C@@H](Cc1ccc(O)cc1)CN(CC(=O)N[C@@H](CCCCN)CN(CC(=O)N[C@@H](Cc1ccccc1)CN(CC(=O)N[C@H]1CCCCNc2c(F)c(F)c(c(F)c2F)S(=O)(=O)c2c(F)c(F)c(c(F)c2F)NCCCC[C@@H](CN(CC(=O)N[C@@H](C)CN(CC(N)=O)S(C)(=O)=O)S(C)(=O)=O)NC(=O)CN(S(=O)(=O)Cc2ccccc2)C[C@H](CC(C)C)NC(=O)CN(S(=O)(=O)CCN)C1)S(=O)(=O)CC(C)C)S(=O)(=O)CCN)S(C)(=O)=O
GI50 (cell growth or viability, CCK-8; 72 h): 4.63 µM

CCCn1c(-c2cccnc2)nc(-c2ccc(C)cc2)c1-c1ccc(C)cc1
IC50 (cell growth or viability, SRB; 48 h): 100 µM

CC(=O)OC[C@H]1O[C@@H](Sc2sc(C(=O)c3ccc(Br)cc3)c(N)c2-c2nc3ccccc3s2)[C@H](OC(C)=O)[C@@H](OC(C)=O)[C@@H]1OC(C)=O
growth (SRB; 10 µM, 48 h; reference: untreated): 112%

N=C(N)NCCC[C@H](NC(=O)[C@H](Cc1c[nH]c2ccccc12)NC(=O)[C@H](CCC(N)=O)NC(=O)[C@H](Cc1c[nH]c2ccccc12)NC(=O)[C@H](CCCNC(=N)N)NC(=O)[C@H](Cc1c[nH]c2ccccc12)NC(=O)[C@H](CCC(N)=O)NC(=O)[C@H](Cc1c[nH]c2ccccc12)NC(=O)[C@@H](N)CCCNC(=N)N)C(N)=O
viability (MTT; concentration not given, 2 h, 37 °C, 5% FBS; reference: untreated cells): 23 ± 4%

CCCCCCCCCCn1c(-c2cccnc2)nc(-c2ccc(C)cc2)c1-c1ccc(C)cc1
IC50 (cell growth or viability, SRB; 48 h): 94.5 µM

Cc1c(C)c(C)[c-](C)c1C.[C-]#[O+].[C-]#[O+].[C-]#[O+].[Cl-].[Cl-].[Cl-].[Ir+3].[Re+].c1cnc(-c2ncccn2)nc1
G2/M-phase cells (PI flow cytometry; 50 µM): 42.7%

CCCCCCCCCCCCCCCCn1c(-c2cccnc2)nc(-c2ccc(C)cc2)c1-c1ccc(C)cc1
IC50 (cell growth or viability, SRB; 48 h): > 100 µM

COc1ccc2c(c1)CCn1c[n+]3c(c1-2)-c1ccc(OC)cc1CC3
protein phosphorylation (Western blot, refers to: p-PERK Thr980, p-eIF2α Ser51; 20 µM, 24 h): increased

CCCCCCCCCCCCn1c(-c2cccnc2)nc(-c2ccc(C)cc2)c1-c1ccc(C)cc1
IC50 (cell growth or viability, SRB; 24 h): > 100 µM

COc1ccc2c(c1)/C(=N\Nc1nnc3n1N=C(c1ccccc1)CS3)C(=O)N2
inhibition (cell growth or viability, SRB; 10 µM): 33%

C[C@H](NC(=O)[C@H](CCC(N)=O)NC(=O)[C@H](Cc1c[nH]c2ccccc12)NC(=O)[C@@H](N)CCCNC(=N)N)C(=O)N[C@@H](CCCNC(=N)N)C(=O)N[C@@H](Cc1c[nH]c2ccccc12)C(=O)N[C@@H](CCC(N)=O)C(=O)N[C@@H](Cc1c[nH]c2ccccc12)C(=O)N[C@@H](CCCNC(=N)N)C(N)=O
viability (MTT; concentration not given, 2 h, 37 °C, 5% FBS; reference: untreated cells): 59 ± 9%

CCCCCCCCC=CCCCCCCCCn1c(-c2cccnc2)nc(-c2ccc(C)cc2)c1-c1ccc(C)cc1
IC50 (cell growth or viability, SRB; 24 h): > 100 µM

C[C@H](NC(=O)[C@H](Cc1c[nH]c2ccccc12)NC(=O)[C@@H](N)CCCNC(=N)N)C(=O)N[C@@H](Cc1c[nH]c2ccccc12)C(=O)N[C@@H](CCCNC(=N)N)C(=O)N[C@@H](Cc1c[nH]c2ccccc12)C(=O)N[C@@H](CCC(N)=O)C(=O)N[C@@H](Cc1c[nH]c2ccccc12)C(=O)N[C@@H](CCCNC(=N)N)C(N)=O
viability (MTT; concentration not given, 24 h, 37 °C, 5% FBS; reference: untreated cells): 40 ± 6%

CC(=O)N[C@@H](Cc1ccc(O)cc1)CN(CC(=O)N[C@@H](CCCCN)CN(CC(=O)N[C@@H](Cc1ccccc1)CN(CC(=O)N[C@H]1CCCCNc2c(F)c(F)c(c(F)c2F)S(=O)(=O)c2c(F)c(F)c(c(F)c2F)NCCCC[C@@H](CN(CC(=O)N[C@@H](C)CN(CC(N)=O)S(C)(=O)=O)S(C)(=O)=O)NC(=O)CN(S(=O)(=O)CC(C)C)C[C@H](Cc2ccccc2)NC(=O)CN(S(=O)(=O)CCN)C1)S(=O)(=O)CC(C)C)S(=O)(=O)CCN)S(C)(=O)=O
GI50 (cell growth or viability, CCK-8; 72 h): 4.95 µM

CC(=O)OC[C@H]1O[C@@H](Sc2sc(C(=O)c3ccc(C)cc3)c(N)c2-c2nc3ccccc3s2)[C@H](OC(C)=O)[C@@H](OC(C)=O)[C@H]1OC(C)=O
growth (SRB; 10 µM, 48 h; reference: untreated): 78.1%

CC(C)Cn1cc(-c2ccnc(Nc3ccc(OCCCCCCC(=O)NO)cc3)n2)nn1
IC50 (cell growth or viability, SRB; 72 h): 1.92 µM

CC(Cc1ccc(Cl)cc1)=C(c1ccc(Cl)cc1)c1ccc(OCCN(C)C)cc1
GI50 (cell growth or viability, SRB): 2.97 µM

Excerpt of the above:
CCCCCCCCCCn1c(-c2cccnc2)nc(-c2ccc(C)cc2)c1-c1ccc(C)cc1
IC50 (cell growth or viability, SRB; 48 h): 94.5 µM

Cc1c(C)c(C)[c-](C)c1C.[C-]#[O+].[C-]#[O+].[C-]#[O+].[Cl-].[Cl-].[Cl-].[Ir+3].[Re+].c1cnc(-c2ncccn2)nc1
G2/M-phase cells (PI flow cytometry; 50 µM): 42.7%

CCCCCCCCCCCCCCCCn1c(-c2cccnc2)nc(-c2ccc(C)cc2)c1-c1ccc(C)cc1
IC50 (cell growth or viability, SRB; 48 h): > 100 µM
